Results from different studies.
Protocols differ between the studies behind these lines. “And” joins repeats or separate records; there may be more than shown.

[N-]=[N+]=Nc1ccc(NCCCCCCN2C[C@H](O)[C@@H](O)[C@H](O)[C@H]2CO)c([N+](=O)[O-])c1  viability (A549 expressing ACE2; WST-1; 25 µM, 3 days): 100%
Cn1cc2cc(C(F)(F)c3nnc4ccc(-c5cnn(C6CC6)c5)nn34)c(F)cc2n1  viability (MKN-45; CCK-8; 0.0025 µM, 72 h; reference: untreated): 94.7% and 98.6% and 95.5%
C=CCn1c(=O)n([C@@H]2O[C@H](CO)[C@@H](O)[C@H]2O)c2nc(N)[nH]c(=O)c21  viability (HFF-1; 100 µM, 48 h): 88.7%
O=[N+]([O-])c1cc(-c2ccccc2)ccc1NCCCCCCN1C[C@H](O)[C@@H](O)[C@H](O)[C@H]1CO  viability (A549 expressing ACE2; WST-1; 25 µM, 3 days): 100%
CC[C@H](C)[C@H](NC(=O)CNC(=O)[C@H](CCSC)NC(=O)[C@H](CO)NC(=O)[C@@H](NC(=O)[C@H](CCC(N)=O)NC(=O)[C@H](CC(C)C)NC(=O)CNC(=O)[C@@H](NC(=O)[C@H](CO)NC(=O)[C@H](CCCCN)NC(=O)[C@H](CC(C)C)NC(=O)[C@H](CCCCN)NC(=O)[C@H](CCCCN)NC(=O)[C@H](CCCCN)NC(=O)[C@@H](NC(=O)[C@H](CCCCN)NC(=O)[C@@H]1CSSC[C@H](NC(=O)[C@H](CCCCN)NC(=O)[C@@H](N)CCCCN)C(=O)N[C@@H](CCCCN)C(=O)N[C@@H](Cc2ccccc2)C(=O)N[C@@H](CC(C)C)C(=O)N1)C(C)C)C(C)C)[C@@H](C)CC)C(=O)O  viability (amphibian and mammalian cell lines; MTT; up to 6.25 µM, 24 h): > 50%
CC(=O)N[C@@H]1[C@@H](O[C@H](C)C(=O)N[C@@H](C)C(=O)N[C@H](CCC(=O)O)C(N)=O)[C@H](O)[C@@H](CO)O[C@H]1O  viability (HFF-1; 100 µg/mL): 83.6%
O=[N+]([O-])c1cc(-c2noc(C3CCC3)n2)ccc1NCCCCCCN1C[C@H](O)[C@@H](O)[C@H](O)[C@H]1CO  viability (A549 expressing ACE2; WST-1; 25 µM, 3 days): 100%
CC[C@H](C)[C@H](NC(=O)[C@H](CCCCN)NC(=O)[C@H](CCCCN)NC(=O)CNC(=O)[C@H](CCCCN)NC(=O)[C@H](CC(C)C)NC(=O)[C@H](CCCCN)NC(=O)[C@H](CCCNC(=N)N)NC(=O)[C@@H](NC(=O)[C@H](CC(C)C)NC(=O)[C@H](CCCNC(=N)N)NC(=O)[C@@H](N)CCCNC(=N)N)[C@@H](C)CC)C(=O)N[C@@H](Cc1ccc(O)cc1)C(=O)N[C@@H](CC(C)C)C(=O)N[C@@H](Cc1ccc(O)cc1)C(=O)N[C@@H](Cc1ccccc1)C(=O)N[C@@H](CCCCN)C(=O)N[C@@H](CC(C)C)C(=O)N[C@@H](CCC(N)=O)C(=O)N[C@@H](CC(C)C)C(=O)N[C@@H](CC(C)C)C(=O)N[C@@H](CCCCN)C(=O)N[C@@H](CCCCN)C(N)=O  viability (RAW264.7; MTT; 64 µM, 48 h): ~80%
Oc1ccc(N=Nc2ccc(-c3nc4ccccc4s3)cc2)cc1CN(Cc1ccccc1)Cc1ccccn1  viability (Neuro2a; DMEM-N2 medium; 20 µM, 48 h): ~70%
CC[C@H](C)[C@H](N)C(=O)N[C@@H](CC(C)C)C(=O)NCC(=O)N[C@H](CCCNC(=N)N)C(=O)N[C@H](C(=O)N[C@@H](Cc1c[nH]c2ccccc12)C(=O)N[C@@H](CCCCN)C(=O)NCC(=O)N[C@H](C(=O)N[C@@H](CCCCN)C(=O)N[C@@H](CC(=O)O)C(=O)N[C@H](C(=O)N[C@@H](CC(C)C)C(N)=O)[C@@H](C)CC)[C@@H](C)CC)[C@@H](C)CC  viability (RAW264.7; MTT; 100 µM, 4 h, serum-free medium): ~80%
N[C@H](CCC(=O)N[C@H](CCC[C@H](N)C(=O)O)C(=O)O)C(=O)O  viability (HFF-1; 10 µg/mL): 97.8%
COCCCCCCCCCN1C[C@H](O)[C@@H](O)[C@H](O)[C@H]1CO  viability (A549 expressing ACE2; WST-1; 25 µM, 3 days): 100%
Nc1ncnc2c1ncn2[C@@H]1O[C@@H]2COP(=O)(O)O[C@H]3[C@@H](O)[C@H](n4cnc5c(=O)[nH]cnc54)O[C@@H]3COP(=O)(O)O[C@H]2[C@H]1O  viability (HFF-1; 1 µg/mL): 91.7%
CC(C)(C)OC(=O)N(Cc1ccco1)C(=O)c1ccc(CN2C(=O)c3ccccc3S2(=O)=O)cc1  viability (RAW264.7; WST-1; up to 100 µM): not toxic

A few entries again:
[N-]=[N+]=Nc1ccc(NCCCCCCN2C[C@H](O)[C@@H](O)[C@H](O)[C@H]2CO)c([N+](=O)[O-])c1  viability (A549 expressing ACE2; WST-1; 25 µM, 3 days): 100%
